Measurements from different studies.
Parts stem from different laboratories: compare values within a part only.

Series 1 — method: RNA Bind-n-Seq; molecule type: RNA; matrix: in vitro; concentration: 20 nM; setting: 6-mer, flanks averaged, single round; together with: 150 mM LiCl; relative to: input library; reading: higher = stronger binding
Target: TAR DNA-binding protein 43, full length, His tag (TARDBP, Homo sapiens, UniProt Q13148, residues 1-414)
Oligonucleotide	6-mer enrichment (R)
CGUCUA	0.865
CGCAAU	0.881
CAACUC	0.831
GGUUAC	0.932
CAAUGU	0.972
CAGCCG	0.872
AACUAA	0.848
GCUACG	0.867

Series 2 — method: protein binding microarray; molecule type: double-stranded DNA, one strand shown; matrix: in vitro; concentration: not given; relative to: not given; reading: higher = stronger binding
Target: Histone acetyltransferase KAT6A, both winged helices, GST fusion (KAT6A, Homo sapiens, UniProt Q92794, residues 1-181)
Setting: 8-mer, flanks averaged, mean of 2 arrays, mostly near background
Construct (chain): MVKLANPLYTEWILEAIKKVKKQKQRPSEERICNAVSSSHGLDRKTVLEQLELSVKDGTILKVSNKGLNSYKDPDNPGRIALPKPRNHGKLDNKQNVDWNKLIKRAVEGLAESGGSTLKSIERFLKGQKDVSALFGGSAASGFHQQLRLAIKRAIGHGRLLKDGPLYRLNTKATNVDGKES
Oligonucleotide	E-score
AAGCCGTA	0.29
AAGCTCTA	-0.179
ACCGTGCC	0.0759
AGCTGAAA	0.0034
AAACTACA	-0.0817
AGTCCTGC	-0.0545
ATAGGTTG	-0.151
CTCATCAG	-0.0878

Series 3 — method: RNAcompete; molecule type: RNA; matrix: in vitro; concentration: 20 nM; setting: 7-mer, probes averaged, single round; relative to: mean of 7-mers; reading: higher = stronger binding
Target: PABPC1L2, full length, GST fusion (mouse, UniProt A0ABA7IW68)
Construct (chain): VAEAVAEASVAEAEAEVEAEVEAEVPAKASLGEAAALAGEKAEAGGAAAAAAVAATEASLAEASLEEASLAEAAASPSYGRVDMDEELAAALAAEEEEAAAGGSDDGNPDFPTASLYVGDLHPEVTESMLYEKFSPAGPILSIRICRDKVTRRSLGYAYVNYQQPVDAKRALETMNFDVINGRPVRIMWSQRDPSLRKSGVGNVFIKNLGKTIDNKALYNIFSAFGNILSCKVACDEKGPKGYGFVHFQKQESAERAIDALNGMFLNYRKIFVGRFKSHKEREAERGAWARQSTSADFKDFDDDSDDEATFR
Oligonucleotide	7-mer Z-score
GCGACUU	-0.117
ACUGAGA	0.164
GCCUGCC	-0.258
CUACUGC	-0.391
GCCUCGA	-0.222
GAUAACG	-0.0917
AUGAGUU	-0.291
CCAAAAC	0.994

Other studies, line by line
Sequence	target	effect on	molecule type	concentration	quantity	result
SLFTEQAFY	HLA class I histocompatibility antigen, A alpha chain, allele A*26:03 (Homo sapiens, UniProt P04439)	peptide-MHC binding	peptide	concentration not given	binding	inactive

For quick reference, copied from above (other studies, line by line):
Sequence	target	effect on	molecule type	concentration	quantity	result
SLFTEQAFY	HLA class I histocompatibility antigen, A alpha chain, allele A*26:03 (Homo sapiens, UniProt P04439)	peptide-MHC binding	peptide	concentration not given	binding	inactive
